# Measurements from different studies.
# Each line is one published result; not all experiments were run side by side.
# Target: Mitogen-activated protein kinase kinase kinase kinase 1 (MAP4K1, Homo sapiens, UniProt Q92918)
SMILES,assay,test system,setting,how to read,quantity,value
C=CC(=O)N1Cc2nc(-c3cc(-c4cc(Cl)cnc4Cl)c(F)cc3F)n(-c3ccncn3)c2C1,"cell-free assay, inhibitor",,1 µM,,inhibition,8.2%
CS(=O)(=O)Nc1cccc(-c2csc3cnc(Nc4ccc(N5CCN(CCCCCOc6cccc7c6C(=O)N(C6CCC(=O)NC6=O)C7=O)CC5)cc4)nc23)c1 (stereo not drawn),"probe labelling, inhibitor, KiNativ chemoproteomics",MOLT-4,1 µM,,inhibition,61.6%
Cc1ccc(-c2c(/C=C(\C#N)C(=O)NC(C)C)n(CCCO)c3ncnc(N)c23)cc1,"cell-free assay, competition with immobilised ligand",,1 µM,,remaining binding,90%
CCn1cc(C(=O)O)c(=O)c2c(N)c(F)c(NC3CCCCC3)cc21,kinase activity,,"0.1 µM, together with: ATP at Km",,inhibition,-0.6%
COc1cc(Nc2nccc(-c3cnn4nc(OC)ccc34)n2)cc(C(F)(F)F)c1,"binding, competition with immobilised ligand",,1 µM,,remaining binding,88%
Nc1ncc2c(n1)-c1c([nH]c3ccc(C4=CCOCC4)cc13)CCC2,"binding, competition with immobilised ligand",,1 µM,,remaining binding,93%
NC(=O)C[C@H]1CCc2sc3ncnc(O[C@H]4CC[C@H](N5CCOCC5)CC4)c3c21,"enzyme activity, inhibitor",,10 µM,,inhibition,8%
O=C(Cc1ccc(OCc2ccccc2)cc1)NC1(C(=O)O)CCN(C(=O)c2ccc(-c3cccc(Cl)c3)cc2)CC1,"enzyme activity, inhibitor",,10 µM,,activity vs control,110%
C=CC(=O)N1CCc2ccc(-n3c(=O)ccc4cnc5ccc(-c6cnn(C)c6)cc5c43)cc21,KINOMEscan,,1 µM,baseline: DMSO control,remaining binding,98%
CN1CC[C@@H](COc2cnc(C#N)cc2-c2ccn3nc(NC(=O)C4CC4)cc3c2)C1,"enzyme activity, inhibitor",,1 µM,,inhibition,-9%
C=CC(=O)N1CCCC(n2c(=O)c3ncccc3n(Cc3ccc(Oc4ccccc4)cc3)c2=O)C1 (stereo not drawn),"cell-free assay, competition with immobilised ligand",,1 µM,,remaining binding,92%
CNC(=O)C1CCN(c2cc(C)c(F)cc2NC(=O)c2ccc(-c3cc(O)ccc3C)c(C)c2)CC1,"binding, competition with immobilised ligand",,1 µM,,remaining binding,100%
